Earlier results that unrelated publications cite.
Protocols differ between the studies behind these lines.
B1: CCL1; sequence looked up; chain KSMQVPFSRCCFSFAEQEIPLRAILCYRNTSSICSNEGLIFKLKRGKEACALDTVGWVQRHRKMLRHCPSKRK

`insulin (human)` — result for ADDL aggregation: “inhibited” (outcome: inhibited; neuronal media; concentration not given).
`KWIKIWFIWRRIKWRK` has an MIC of 46.9 µg/mL (Pseudomonas aeruginosa; peptide).
`brentuximab vedotin`: “complete response rate” 66% (relapsed/refractory ALCL patients, human; dose not given, PTCL).
`human hepcidin` — result for “time to return to baseline”: no more than 48 h (refers to: serum iron; healthy human, serum; subcutaneous, dose not given).
The progression-free survival of `pembrolizumab` is reported as 9.5 to 12.7 months (HNSCC patients; dose not given, second-line therapy after first-line compound).
With `B1 (CCL1)` the EC50 was 8.2 nM (CCR8 V109A mutant; IP accumulation, agonist).
`pegcetacoplan`: “cardiovascular, respiratory, body temperature effects” “no effect” (cynomolgus monkey; 28 or 140 mg/kg).
`pentagastrin` has a gastric pH of 1 to 2 (dog; dose not given).
`hydroxysafflor yellow A` has an effective dose of 92 mg/kg (kidney protection; rat renal ischaemia-reperfusion injury; intraperitoneal).
For `retatrutide`, “body weight reduction” read 17.5% (human, obese adults; 12 mg, 24 weeks, trial).
`indirubin-3'-monoxime` has an IC50 of greater than 30000 nM (vasculogenesis; zebrafish embryos).
`ifinatamab deruxtecan` has a partial response of 75% (patients with SCLC; dose not given).
`bevacizumab`: “median duration of response” 5.3 months (patients with recurrent glioblastoma; dose not given, CheckMate-143 trial).
The MIC of `RGTCYNRVGLIIRNFSKLKGKKV` is reported as 7 µM (Pseudomonas aeruginosa; peptide, ATCC 15692).

A few entries again:
`pegcetacoplan`: “cardiovascular, respiratory, body temperature effects” “no effect” (cynomolgus monkey; 28 or 140 mg/kg).
